Experimental data from different studies.
Compare with care: the assays were run in different laboratories. “And” joins repeats or separate records; there may be more than shown. Numbers after ± are the reported error.
Matrix protein 2 S31N: Matrix protein 2 (Influenza A virus, UniProt P0DOF5, S31N)

Compound = CC(C)CC(C(=O)N1CC2(CC1C#N)C(=O)Nc1ccccc12)N(C)C(=O)c1cc2c(F)cc(F)c(F)c2[nH]1 (stereo not drawn); tested on = SARS-CoV-2; test = viral replication; system = VeroE6/TMPRSS2, Omicron variants; conditions = 0.003704 µM; quantity = inhibition; value = 9.09%
Compound = CC(C)C(=O)OC[C@H]1O[C@@](C#N)(n2ccc(N)nc2=O)[C@H](O)[C@@H]1O; tested on = SARS-CoV-2; test = viral replication; system = Calu-3, Alpha; quantity = EC90; value = 6800 ± 400 nM
Compound = Oc1ccc(CCCCCCCCC(O)c2c(O)cccc2O)cc1O (stereo not drawn); tested on = SARS-CoV-2; system = HEK293T ACE2, Alpha B.1.1.7; how to read = baseline: CC50 over EC50; quantity = selectivity index; value = 1.7
Compound = CC(=O)c1cccc(-c2nc(Nc3ccccc3)nc(N3CCOCC3)n2)c1; tested on = SARS-CoV-2; system = D614G spike pseudovirus; conditions = concentration not given; quantity = pseudovirus entry inhibition; value = inhibited
Compound = CC(C)(C)[C@H](NC(=O)NC1(CS(=O)(=O)C(C)(C)C)CCCCC1)C(=O)N1C[C@H]2[C@@H]([C@H]1C(=O)N[C@H](C#N)C[C@@H]1CCNC1=O)C2(C)C; tested on = Replicase polyprotein 1ab, main protease (rep, Severe acute respiratory syndrome coronavirus 2, UniProt P0DTD1, C3408A); test = binder, thermal shift; quantity = delta Tm; value = 1.5 °C
Compound = O=C(CCCCCCCCCCc1ccc(O)c(O)c1)c1c(O)cccc1O; tested on = SARS-CoV-2; system = HEK293T ACE2, Delta B.1.617.2; how to read = baseline: CC50 over EC50; quantity = selectivity index; value = 2.6
Compound = CC1OC(OC2C(OC(=O)C34CCC(C)(C)CC3C3=CCC5C6(C)CCC(OC7OC(CO)C(O)C(O)C7O)C(C)(C)C6CCC5(C)C3(C)CC4O)OCC(O)C2O)C(O)C(O)C1OC1OCC(O)C(OC2OCC(O)C(O)C2O)C1O (stereo not drawn); tested on = SARS-CoV-2; test = pseudovirus entry; system = H1299 ACE2/TMPRSS2+; quantity = IC50; value = 650 nM
Compound = O=C(NC1CCN(c2ncnc3[nH]cnc23)CC1)c1cccc(NS(=O)(=O)c2ccc(C(F)(F)F)cc2)c1; tested on = SARS-CoV-2; test = viral replication; system = A549-ACE2, Omicron variant; conditions = 24 h; quantity = EC50; value = 64 nM
Compound = COc1ccc2c(O)c(C(=O)Nc3ccc(CN)cc3)ccc2c1; tested on = SARS-CoV-2; test = viral infection; system = D614G; conditions = 10 µM; quantity = inhibition; value = > 56%
Compound = CC1OC(OC2C(OC(=O)C34CCC(C)(C)CC3C3=CCC5C6(C)CCC(OC7OC(CO)C(O)C(O)C7O)C(C)(C)C6CCC5(C)C3(C)CC4O)OCC(O)C2O)C(O)C(O)C1OC1OCC(O)C(OC2OCC(O)C(OC3OCC(O)C(O)C3O)C2O)C1O (stereo not drawn); tested on = SARS-CoV-2; test = pseudovirus entry; system = H1299 ACE2/TMPRSS2+; quantity = IC50; value = 610 nM
Compound = O=c1[nH]cnc2c(C3NC(COP(=O)(O)OP(=O)(O)OP(=O)(O)O)C(O)C3O)c[nH]c12 (stereo not drawn); tested on = SARS-CoV-2; test = cytopathic effect; system = Vero C1008, Omicron BA.1; conditions = 48 h; quantity = IC100; value = 1.02 ± 0.04 µM
Compound = Cc1cc(CNC23CC4CC(CC(C4)C2)C3)no1; tested on = Matrix protein 2 S31N; test = channel activity, inhibitor; conditions = 100 µM, S31N mutant; quantity = inhibition; value = 49%
Compound = CC(=O)Oc1ccc(CCCCCCCCC(=O)c2c(OC(C)=O)cccc2OC(C)=O)cc1OC(C)=O; tested on = SARS-CoV-2; system = HEK293T ACE2, Gamma P.1; how to read = baseline: CC50 over EC50; quantity = selectivity index; value = 4.3
Compound = Cc1nc(CNC23CC4CC(CC(C4)C2)C3)no1; tested on = Matrix protein 2 S31N; test = channel activity, inhibitor; conditions = 100 µM, S31N mutant; quantity = inhibition; value = 60%
Compound = CCn1ccc(-c2cc(-c3cnn(C)c3)cc([C@@H](C)NC(=O)c3cc(OCCN(C)C)ccc3C)c2)n1; tested on = SARS-CoV-2; system = WA1 lineage passage 11; conditions = concentration not given; quantity = T115T (ACC) mutation frequency; value = 90% and 72.9% and 88.4% and 84.2%

Repeated from above:
Compound = CC(=O)c1cccc(-c2nc(Nc3ccccc3)nc(N3CCOCC3)n2)c1; tested on = SARS-CoV-2; system = D614G spike pseudovirus; conditions = concentration not given; quantity = pseudovirus entry inhibition; value = inhibited
Compound = CC(C)(C)[C@H](NC(=O)NC1(CS(=O)(=O)C(C)(C)C)CCCCC1)C(=O)N1C[C@H]2[C@@H]([C@H]1C(=O)N[C@H](C#N)C[C@@H]1CCNC1=O)C2(C)C; tested on = Replicase polyprotein 1ab, main protease (rep, Severe acute respiratory syndrome coronavirus 2, UniProt P0DTD1, C3408A); test = binder, thermal shift; quantity = delta Tm; value = 1.5 °C
